Assay results gathered from unrelated publications.
Every numbered part comes from another study and shows a few of its results, in no order. Substitutions count along the parent as printed.

Sample 1 — target: CCND1, cyclin fold, Cln2 fusion (human); method: yeast growth competition, sequencing; medium: yeast; notes: weak parent motif; reference: not given; direction: higher = stronger binding
Parent: E2F3 docking peptide (human); PPAKRRLELGESG; partner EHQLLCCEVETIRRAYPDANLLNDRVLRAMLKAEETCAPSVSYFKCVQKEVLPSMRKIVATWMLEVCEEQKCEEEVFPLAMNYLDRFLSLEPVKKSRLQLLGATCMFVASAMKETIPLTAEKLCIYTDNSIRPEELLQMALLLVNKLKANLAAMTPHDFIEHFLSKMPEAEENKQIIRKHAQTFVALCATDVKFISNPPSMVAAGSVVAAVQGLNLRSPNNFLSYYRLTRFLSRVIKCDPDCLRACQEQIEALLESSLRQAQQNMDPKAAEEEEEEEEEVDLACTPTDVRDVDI
Change | normalised enrichment score
PPAKRRLELGEAG [S12A] | 0.3
PPAARRLELGESG [K4A] | 0.704
PPAKARLELGESG [R5A] | 0.247
APAKRRLELGESG [P1A] | 0.395
PPAKRRLEFGESG [L9F] | 2.34
PPAKRRAELGESG [L7A] | 0.146
PPAKARAELGESG [R5A L7A] | 0.178
PPAKKRLELGESG [R5K] | -0.554
PPAKRRLELGESA [G13A] | -0.314

Sample 2 — method: DHFR PCA, deep sequencing; medium: yeast; together with: (+)-ABA 4.8 µM; reference: wild-type fitted maximum; direction: higher = stronger binding
Target: ABI1, truncated, D143A, DHFR fusion (Arabidopsis thaliana)
Notes: methotrexate growth selection, single substitutions
Parent: PYL1, truncated, DHFR fusion (Arabidopsis thaliana); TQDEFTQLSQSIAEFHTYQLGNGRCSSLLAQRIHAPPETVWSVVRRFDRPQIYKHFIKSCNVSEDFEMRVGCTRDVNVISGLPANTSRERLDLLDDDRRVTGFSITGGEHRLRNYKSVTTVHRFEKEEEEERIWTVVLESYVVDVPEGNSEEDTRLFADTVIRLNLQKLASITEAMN; partner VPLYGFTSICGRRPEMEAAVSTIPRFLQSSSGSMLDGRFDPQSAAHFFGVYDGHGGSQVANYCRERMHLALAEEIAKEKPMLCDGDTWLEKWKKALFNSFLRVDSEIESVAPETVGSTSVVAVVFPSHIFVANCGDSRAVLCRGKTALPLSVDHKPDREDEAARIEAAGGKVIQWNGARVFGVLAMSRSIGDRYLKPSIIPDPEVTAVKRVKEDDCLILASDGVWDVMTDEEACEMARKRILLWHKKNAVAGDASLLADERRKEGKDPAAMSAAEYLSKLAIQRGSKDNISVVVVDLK
Change | relative binding score [%]
D96C | -0.109
R111V | 2.38
L112D | -10.1
T101C | 59.7
L91Q | -6.41
D159E | 45
S63H | 63.9
G23W | 12.6
R45P | -15.5
S42P | 17.7
G102F | -10.8
F66K | 49.2
R163S | 53.7
S80D | -15.4
N114S | 10.9

Sample 3 — method: RNA Bind-n-Seq; form: RNA; medium: in vitro; concentration: 20 nM; notes: 6-mer, flanks averaged, single round; together with: 150 mM LiCl; reference: input library; direction: higher = stronger binding
Target: TAR DNA-binding protein 43, full length, His tag (TARDBP, Homo sapiens, UniProt Q13148, residues 1-414)
Oligonucleotide | 6-mer enrichment (R)
GGUAUG | 1.5
UUUCAA | 0.932
AUUUCA | 0.908
CAUCAG | 0.8
CCACUG | 0.932
AACAAU | 1.06
UUAUAC | 0.939
UGGGGA | 1.27
CAAUUU | 1.03
CACAAC | 0.848
CAGGAA | 0.852
GGUAAA | 0.954
AUGCAC | 0.901
GCUGGG | 1.15
GGUUAA | 0.992
UUGCUC | 0.936
CCGUAU | 0.932

Sample 4 — method: protein-binding microarray; form: double-stranded DNA, one strand shown; medium: in vitro; concentration: 2200 nM top; notes: 60-bp whole probe; together with: salmon DNA 0.4 mg/ml; reference: random background probes; direction: higher = stronger binding; all sequences stand within: GCCTAGCAC … GTCTTGATTCGCTTGACGCTGCTG
Target: Interferon regulatory factor 7, full length, phosphomimetic (IRF7, Homo sapiens, UniProt Q92985, residues 1-503, S471D/S472D/S475D/S476D/S477D/S483D/S484D/S487D)
Target sequence (chain): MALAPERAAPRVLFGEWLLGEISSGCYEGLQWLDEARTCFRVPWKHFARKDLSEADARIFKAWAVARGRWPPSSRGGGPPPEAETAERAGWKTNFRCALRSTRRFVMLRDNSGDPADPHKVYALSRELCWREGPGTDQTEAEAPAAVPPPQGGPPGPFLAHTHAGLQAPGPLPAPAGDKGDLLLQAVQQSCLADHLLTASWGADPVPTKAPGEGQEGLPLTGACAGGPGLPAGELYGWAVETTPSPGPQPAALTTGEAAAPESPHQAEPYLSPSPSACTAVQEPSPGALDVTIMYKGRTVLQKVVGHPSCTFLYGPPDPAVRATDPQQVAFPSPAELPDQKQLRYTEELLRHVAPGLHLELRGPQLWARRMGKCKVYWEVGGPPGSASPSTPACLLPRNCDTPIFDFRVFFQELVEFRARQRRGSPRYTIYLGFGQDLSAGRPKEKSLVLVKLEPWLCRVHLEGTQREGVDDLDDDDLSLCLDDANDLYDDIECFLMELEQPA
Oligonucleotide | fitted relative affinity
GACGGTTTCGGTAACGGGACGTGCTAG | 3.24 z-score
GACGCACTGCTTCTCCTGACGTGCTAG | 0.931 z-score
TTATGTTTCCTTATCCTTTAGTGCTAG | 3.18 z-score
TTAGATATCGGGTTTCGACTAGTGCTA | 1.62 z-score
TCAACTGTCTGTTTCCTACTGTGCTAG | 2 z-score
TCAAGTATTTTTTTCCAACTGTGCTAG | 0.716 z-score
GACGGACTGCTACTGCTGACGTGCTAG | 0.0135 z-score
TTTTGCTTTCATTTATTTACGTGCTAG | 6.8 z-score
TCAAGATTTTTTTTCCTACTGTGCTAG | 0.766 z-score
GACCATCTCAGTCTCGAGACGTGCTAG | 0.487 z-score
GAGGGACTGGACACTGGGGACGTGCTA | -1.04 z-score
TTAGGACTTCTTCTCCTTTAGTGCTAG | 0.816 z-score
GACGGTTTCCGACTGCTGACGTGCTAG | 2.07 z-score
TCATTTCCCAGAACTGGAACTGTGCTA | 1.85 z-score
TTAGGTGTCGGTTTCGGTTAGTGCTAG | 6.04 z-score
TTTTTTTTATTTATAAATTAGTGCTAG | 0.87 z-score

Sample 5 — method: RNA Bind-n-Seq; form: RNA; medium: in vitro; concentration: 365 nM; reference: no-protein control; direction: higher = stronger binding
Target: RNA binding protein fox-1 homolog 2, RRM domain, GST-SBP tag (RBFOX2, Homo sapiens, UniProt O43251-10, residues 100-194)
Notes: natural RNA segment, single round, ends assumed
All sequences stand within: GGGAGUUCUACAGUCCGACGAUC … UGGAAUUCUCGGGUGCCAA
Residues (chain): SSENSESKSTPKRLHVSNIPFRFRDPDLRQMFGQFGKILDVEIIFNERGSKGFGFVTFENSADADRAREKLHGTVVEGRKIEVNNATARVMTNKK
Oligonucleotide | RBNS enrichment (R)
AUGUCGUAAGUUCUCUGUAAGUGAAAUGGGGUAGACUGUAUGAUUUUCCUAUUGCCAAAAGAAAGAAAGGGGGCCAAACAGCUCUGAAAUUUCCAAAAAAUGGCUAGAGG | 0.563
UCCCUUACUGUUGCUGGGAGCCUCGCCCUUUGUCCCAACUGGGUAGAGCCCCCAGGUGCUGUUUGCUCAGGAGGCUGCUGUGGGGGUGCCUUCCUCAGCCUCUGGCCCUC | 0.34
GGACGUUAGGCAGAGAGCUCAGAUGGCCCUUUUAAGGGGGCUCCAAGAACCAACAUCACUGCUCUUUUAGAUAAACCUCUGCCCUCCACUCCUUGCUUGAGUGGGUUAAA | 0.395
CUUGCAUUGACAUGUUUCCUUUUGAAAUGAGGUAAUCAAUUAGGUGGGGAAAAAAAUGUUCUCGACUGAUACUUGUAUAUCGGGUGCAUUUAAUGGCAGUCACAACUCUG | 0.331
CCUGGACAGCACAGAUCCAGUGUGUUGCUGGCACUUGAGGUGUAAUAAAUGGCCUGGGGUGCUGCCUCUUUCUCUUGUUGCUCUGGGGGUACUGGGGAGGAGGAGAGGUG | 0.551
GGCUGCCAGAAUCAGCGGAUGCUGGAUGGGCCUGCAGAAACAACACUCACCACACACACUUCCUUCAAAAGACCAAAAGUGACUGGUGUCUCGUGUGACAGAUUGCUUCA | 0.355
UCCUGUUAUAGAGGAGGCUACGUAGACCAAAAUGAGAAAAGGAAUGUGGCCACAGAAUGUAACCGUCCAGUUUCUGCCUUUCACUUUCUUGGGGGUUGCUUGUGAAAUUA | 2.42
UGUUUGCUUUUGAUGUAUCCCUUUGUGAAAUUAGCACUUUUGGGGCCAAUGGAGAAAUGCAGCAUUCACUCUCCCUGUCUUUUCCCCUUCCCUCAGCAGAAACGUGUUUA | 0.474
GAAAAAUCAGCAAAGAGUAUGGUUUUUAUCAAGAAUUUGUGUUGGGAGUAAAAACUGCUUUAUAGCUCCCAAAUUAGGAAGAGAAGAGCAGAAAUCCUCUGGGGCAUUUA | 0.716
GCAGUGUUUACCAUAAACAGGUACAGGCUUCAUGAGUUUUUCAUACUGAUUUACAAUUGAGUAGAUACCAAAAACAGAGUGGCAAGUGUAUUUUAGUAGCAGUUGAGGCA | 0.433
ACCCAUCUUCAGCUGAGGUUGUUAUGGGGGGCUGGAAUCACGUGUUUUUUAAACCUGAUAUUUUCAUUCCUAAUUGAGUGACAGCCAUCUUUUAAGGUGUUGGGCAUGGA | 0.446
CCGAGCUGCCGACUGGAGGGACGUGUCGGAGCUUCUCAAGCCUCUUGGUCUCUACGAUCUCCGUGCAAAAACCAUUAUCAAGUUCUCAGAUGAAUAUCUGACAAAGCAGU | 0.55

Sample 6 — target: OGT, full length, His-tagged (human); method: phage display, sequencing; medium: in vitro; concentration: 1 µg OGT; reference: input library; direction: higher = stronger binding; parent: peptide; TAPFYPPAYQIQVFK
Notes: single substitutions, 15-mer displayed peptide, unchanged parent 19.6
Change | fold enrichment
Y9L | 5.62 fold
Q10S | 1.23 fold
T1H | 20.9 fold
V13P | 9.1 fold
F14D | 11.4 fold
V13A | 11 fold
V13F | 18.9 fold
I11G | 0.517 fold
Q10M | 2.5 fold
Q10N | 0.911 fold
Y9T | 1.16 fold
K15W | 6.63 fold
A8V | 27.5 fold
Q10A | 1.57 fold
P7H | 1.71 fold
Q10P | 1.49 fold
Y9A | 1.07 fold
Q12P | 9.24 fold
A2E | 25.4 fold
I11E | 0.748 fold
V13M | 10.8 fold
P7V | 0.913 fold
F14P | 23.6 fold
A2R | 16.5 fold
P3E | 24.8 fold

Excerpt of the above (sample 6):
Change | fold enrichment
I11G | 0.517 fold
Q10M | 2.5 fold
Q10N | 0.911 fold
Y9T | 1.16 fold
K15W | 6.63 fold
A8V | 27.5 fold
